Measured values from different studies.
A part holds a random share of what one study measured.

Series 1
Target: RING finger protein unkempt homolog, zinc fingers 1-6, SBP tag (UNK, Homo sapiens, UniProt Q9C0B0, residues 30-357)
Chain of UniProt Q9C0B0 (30-357, looked up): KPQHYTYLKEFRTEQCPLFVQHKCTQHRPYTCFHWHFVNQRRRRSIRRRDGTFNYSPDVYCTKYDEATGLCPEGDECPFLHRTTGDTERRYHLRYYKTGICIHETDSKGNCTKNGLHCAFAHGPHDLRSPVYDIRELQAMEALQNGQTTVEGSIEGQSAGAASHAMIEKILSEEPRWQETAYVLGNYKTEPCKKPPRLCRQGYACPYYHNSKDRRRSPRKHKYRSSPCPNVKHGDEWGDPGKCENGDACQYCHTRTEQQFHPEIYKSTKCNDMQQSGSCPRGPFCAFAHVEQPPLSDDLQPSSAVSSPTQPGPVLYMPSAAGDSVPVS
Method: RNA Bind-n-Seq
Molecule type: RNA
Medium: in vitro
Tested at: 100 nM
Notes: RNA with constant flanks, vertebrate orthologous sites, ends assumed
Reference: input RNA pool
Reading: higher = stronger binding
All sequences stand within: GGGAGUUCUACAGUCCGACGAUC … CAACAGAGGAUUGAGCAUCA
| Sequence | bound/input enrichment |
| --- | --- |
| CUCUUUUCCAGGUUGGAUGUAGUGGAAAAGUCAUAGGAAUUGAUCACAUUAAAGAGCUAGUAGAUGACUCAAUAAAUAAUGUCAGGAAGGAUGAUCCAACACUUCUGUCUUCAGGGAGAG | 0.914 ratio |
| CAUGUAGUUUGUUUUUAAUUUCAAGCCAAUCUUAUUGUACUUGAAUGUGCCCUGUUUUGUUAGCACACCUAGACUUGCUGUAACUGUACUCAUGUCCCAGAUGUACGUUCUUUCUAUGAA | 1.18 ratio |
| AUCCUUUCAUACUGUCUCCAGCUGGUACCAUGGACUGGAUGUCUCACUGAGGACCUGCAUUUCAAAUAGUUUUUUUUUUUUAAUUGUACAAGAAGAGAUUAGAUAAAACAGCAUCUCAAA | 5.77 ratio |
| CAUGUCCUUGUUACUGUGGUAUUUAAAAUAUUCACAGUAUCCACCUUUUCCAAAUGAGUCUAGUAAUAUCUUUCUCUUAUCUGUUAUUUAUCAAUUUUUCCCAGUAUUUUUAUACGGAAA | 1.34 ratio |
| CUCCACCACCCCUGGGUGCCUGACUCCAGUGAAGCACUCACCAGUGCUGCAAGGGGUCCAGAGUAUUUUUUUUGCUGCUUCAGUCCCCAAUGCCUUCCAGCAGAAGUGGCAGUAGACUGU | 0.3 ratio |
| CAUUGUACCCUGCUGUAUAAUAAACAAUCUUAGACAUUUAUCAGCUGUUGAUACAAAUGUUAGUCCCUAAUCACUUUUUAUAUGUUUUAAAUUUUUGAAAUUCAAGUGUACCUGCCAUAA | 1.97 ratio |

Series 2
Target: Histone acetyltransferase KAT6A, both winged helices, GST fusion (KAT6A, Homo sapiens, UniProt Q92794, residues 1-181)
Method: protein binding microarray
Molecule type: double-stranded DNA, one strand shown
Medium: in vitro
Tested at: not given
Notes: 8-mer, flanks averaged, mean of 2 arrays, mostly near background
Reference: not given
Reading: higher = stronger binding
Construct (chain): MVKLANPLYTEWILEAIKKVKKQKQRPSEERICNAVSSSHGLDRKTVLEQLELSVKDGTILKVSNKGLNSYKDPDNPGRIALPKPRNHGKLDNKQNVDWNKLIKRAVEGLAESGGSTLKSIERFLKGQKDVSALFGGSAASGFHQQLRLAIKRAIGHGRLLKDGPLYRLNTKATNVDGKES
| Sequence | E-score |
| --- | --- |
| CACACAGC | 0.0694 |
| AGAGGGCC | -0.0542 |
| AACAAATA | -0.022 |
| ACACTCTG | -0.219 |
| TGCAGCCA | -0.0777 |
| ACACTAGA | -0.122 |
| CCTCTGAA | -0.144 |
| CGCACCGC | 0.283 |
| CATCTTCC | 0.00464 |
| CTCATAAG | -0.301 |
| CGTGAGCC | 0.128 |

Series 3
Target: Prothrombin, mature alpha-thrombin (F2, Homo sapiens, UniProt P00734)
Method: aptamer microarray, sandwich
Molecule type: DNA with 2'F-ANA
Medium: in vitro
Tested at: 200 nM
Notes: whole 15-mer aptamer, many near background
With: Cy3 exosite-II aptamer, 400 nM
Reading: higher = stronger binding
Sequence: GGTTGGTGTGGTTGG
| Modification | mean fluorescence intensity |
| --- | --- |
| 2'F-ANA at 1 2 3 6 10 12 13 14 15 | 54.2 a.u. |
| 2'F-ANA at 3 6 7 8 10 11 12 13 | 435 a.u. |
| 2'F-ANA at 2 3 4 5 6 15 | 81.5 a.u. |
| 2'F-ANA at 1 3 4 6 11 12 14 | 72.5 a.u. |
| 2'F-ANA at 2 4 6 7 10 11 12 15 | 96.4 a.u. |
| 2'F-ANA at 1 6 9 11 12 13 14 | 62.5 a.u. |
| 2'F-ANA at 3 4 5 7 10 11 15 | 79 a.u. |
| 2'F-ANA at 2 3 4 5 7 8 10 11 12 14 | 52.2 a.u. |
| 2'F-ANA at 1 5 7 8 9 10 12 15 | 52.7 a.u. |
| 2'F-ANA at 2 4 5 8 11 12 13 15 | 82.7 a.u. |
| 2'F-ANA at 1 4 5 8 9 10 11 12 13 14 | 58.4 a.u. |

Further values, each from its own experiment
| Molecule | target | test | test system | setting | scale | quantity | value |
| --- | --- | --- | --- | --- | --- | --- | --- |
| PhoQ, residues 284 288 289 292 302 303 ALAMYF | PhoP, residues 12 14 15 18 19 VHTVL (Escherichia coli, UniProt P23836) | Sort-seq, measured: YFP reporter | E. coli | PhoQ-PhoP variant library, with: 10 µM Mg2+ | reference: high Mg2+ state, higher = stronger signaling | fold induction | 2.24 |

Repeated from above (series 3):
| Modification | mean fluorescence intensity |
| --- | --- |
| 2'F-ANA at 1 2 3 6 10 12 13 14 15 | 54.2 a.u. |
| 2'F-ANA at 2 3 4 5 6 15 | 81.5 a.u. |
| 2'F-ANA at 3 6 7 8 10 11 12 13 | 435 a.u. |
| 2'F-ANA at 1 4 5 8 9 10 11 12 13 14 | 58.4 a.u. |
